Published values pooled from the literature.
Each numbered part is a random draw from the data of one study; scales do not carry over between parts.

Study 1 — method: protein binding microarray; form: double-stranded DNA, one strand shown; sample: in vitro; concentration: not given; baseline: not given; reading: higher = stronger binding; measurement: E-score
Target: Histone acetyltransferase KAT6A, winged helix 2, GST fusion (KAT6A, Homo sapiens, UniProt Q92794, residues 85-181)
Notes: 8-mer, flanks averaged, mean of 2 arrays, mostly near background
Residues (chain): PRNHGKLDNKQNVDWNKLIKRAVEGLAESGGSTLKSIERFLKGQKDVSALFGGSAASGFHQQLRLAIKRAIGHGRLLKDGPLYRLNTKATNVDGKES
Oligonucleotide = GGCGGTCA; value = 0.131
Oligonucleotide = GTATTGTA; value = -0.14
Oligonucleotide = CCGTTGCA; value = -0.0524

Study 2 — method: aptamer microarray, sandwich; form: DNA with 2'F-ANA; sample: in vitro; concentration: 200 nM; with: Cy3 exosite-II aptamer, 400 nM; reading: higher = stronger binding; measurement: mean fluorescence intensity
Target: Prothrombin, mature alpha-thrombin (F2, Homo sapiens, UniProt P00734)
Notes: whole 15-mer aptamer, many near background
Oligonucleotide = GGTTGGTGTGGTTGG (2'F-ANA at 4 8 9 11 13); value = 196 a.u.
Oligonucleotide = GGTTGGTGTGGTTGG (2'F-ANA at 2 3 5 6 8 10 11 12 13 15); value = 58 a.u.
Oligonucleotide = GGTTGGTGTGGTTGG (2'F-ANA at 2 6 9 10 15); value = 102 a.u.

Mixed results
SALL4 full length isoform A: Sal-like protein 4, full length isoform A (SALL4, Homo sapiens, UniProt Q9UJQ4, residues 1-1053)
UniProt Q9UJQ4, sequence (whole entry, looked up): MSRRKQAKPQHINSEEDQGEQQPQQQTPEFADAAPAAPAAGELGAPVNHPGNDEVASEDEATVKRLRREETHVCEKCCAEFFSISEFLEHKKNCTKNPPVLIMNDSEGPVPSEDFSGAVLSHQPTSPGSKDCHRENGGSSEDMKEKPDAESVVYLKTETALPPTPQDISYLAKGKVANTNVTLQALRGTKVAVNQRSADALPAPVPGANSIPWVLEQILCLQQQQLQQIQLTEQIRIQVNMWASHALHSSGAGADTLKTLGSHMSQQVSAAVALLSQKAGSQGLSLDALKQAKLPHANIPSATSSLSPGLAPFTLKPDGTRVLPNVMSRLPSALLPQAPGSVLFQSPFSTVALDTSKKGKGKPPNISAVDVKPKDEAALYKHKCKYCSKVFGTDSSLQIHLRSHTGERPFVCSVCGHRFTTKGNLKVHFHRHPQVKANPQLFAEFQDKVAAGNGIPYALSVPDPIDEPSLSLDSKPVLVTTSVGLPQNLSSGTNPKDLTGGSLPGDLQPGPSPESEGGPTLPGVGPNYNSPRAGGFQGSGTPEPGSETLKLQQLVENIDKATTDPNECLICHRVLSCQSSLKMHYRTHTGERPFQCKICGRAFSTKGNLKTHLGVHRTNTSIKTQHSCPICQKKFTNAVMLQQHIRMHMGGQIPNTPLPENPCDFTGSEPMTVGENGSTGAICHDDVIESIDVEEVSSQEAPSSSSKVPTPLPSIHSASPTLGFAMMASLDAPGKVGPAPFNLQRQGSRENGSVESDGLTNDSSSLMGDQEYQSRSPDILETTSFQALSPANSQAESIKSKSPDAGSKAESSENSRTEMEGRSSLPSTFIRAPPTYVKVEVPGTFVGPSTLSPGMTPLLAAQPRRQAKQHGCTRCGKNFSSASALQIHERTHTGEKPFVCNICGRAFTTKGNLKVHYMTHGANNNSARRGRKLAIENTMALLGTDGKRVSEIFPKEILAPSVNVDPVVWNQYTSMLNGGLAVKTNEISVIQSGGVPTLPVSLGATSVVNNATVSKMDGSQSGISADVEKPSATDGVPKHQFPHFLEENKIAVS
Molecule = GCGTCACA; target = SALL4 full length isoform A; assay = universal PBM; test system = double-stranded DNA, one strand shown, in vitro; setting = 600 nM, 8-mer, flanks averaged, mean of replicates; how to read = higher = stronger binding; measurement = E-score; value = -0.0958
Molecule = PhoQ, residues 284 288 289 292 302 303 SSTMSV; target = PhoP, residues 12 14 15 18 19 NQCAL (Escherichia coli, UniProt P23836); assay = Sort-seq, refers to: YFP reporter; test system = E. coli; setting = PhoQ-PhoP variant library, with: 10 µM Mg2+; how to read = baseline: high Mg2+ state, higher = stronger signaling; measurement = fold induction; value = 18.7
Molecule = ACGTAGCA; target = SALL4 full length isoform A; assay = universal PBM; test system = double-stranded DNA, one strand shown, in vitro; setting = 600 nM, 8-mer, flanks averaged, mean of replicates; how to read = higher = stronger binding; measurement = E-score; value = -0.0922

Some of these lines once more (study 2):
Oligonucleotide = GGTTGGTGTGGTTGG (2'F-ANA at 2 6 9 10 15); value = 102 a.u.
